Measured values from different studies.
± marks the error that the study gave.
OPRK1: Kappa-type opioid receptor (OPRK1, Homo sapiens, UniProt P41145)

Amino acid sequences for entries named in this document (tags omitted).
UniProt P41145, whole entry: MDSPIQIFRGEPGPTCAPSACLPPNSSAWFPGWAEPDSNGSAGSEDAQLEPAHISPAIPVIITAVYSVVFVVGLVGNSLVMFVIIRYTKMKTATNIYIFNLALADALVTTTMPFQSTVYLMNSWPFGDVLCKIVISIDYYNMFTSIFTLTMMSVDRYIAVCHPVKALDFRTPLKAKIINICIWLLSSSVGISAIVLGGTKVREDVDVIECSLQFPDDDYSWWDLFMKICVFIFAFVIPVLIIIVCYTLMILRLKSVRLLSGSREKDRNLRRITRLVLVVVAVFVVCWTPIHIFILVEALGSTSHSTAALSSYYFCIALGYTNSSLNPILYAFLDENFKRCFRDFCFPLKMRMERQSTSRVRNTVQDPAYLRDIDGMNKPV
UniProt P41145, whole entry E297K: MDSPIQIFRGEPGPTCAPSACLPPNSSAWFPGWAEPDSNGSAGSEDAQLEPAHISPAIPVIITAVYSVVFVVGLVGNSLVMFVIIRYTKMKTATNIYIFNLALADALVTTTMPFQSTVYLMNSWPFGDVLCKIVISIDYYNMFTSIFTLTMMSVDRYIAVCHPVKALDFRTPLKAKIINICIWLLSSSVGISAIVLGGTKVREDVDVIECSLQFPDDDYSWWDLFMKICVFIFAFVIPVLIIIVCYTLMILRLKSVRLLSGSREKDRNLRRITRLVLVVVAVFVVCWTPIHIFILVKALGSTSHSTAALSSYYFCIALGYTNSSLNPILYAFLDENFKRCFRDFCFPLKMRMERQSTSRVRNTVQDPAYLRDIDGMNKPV
UniProt P36888, whole entry, looked up: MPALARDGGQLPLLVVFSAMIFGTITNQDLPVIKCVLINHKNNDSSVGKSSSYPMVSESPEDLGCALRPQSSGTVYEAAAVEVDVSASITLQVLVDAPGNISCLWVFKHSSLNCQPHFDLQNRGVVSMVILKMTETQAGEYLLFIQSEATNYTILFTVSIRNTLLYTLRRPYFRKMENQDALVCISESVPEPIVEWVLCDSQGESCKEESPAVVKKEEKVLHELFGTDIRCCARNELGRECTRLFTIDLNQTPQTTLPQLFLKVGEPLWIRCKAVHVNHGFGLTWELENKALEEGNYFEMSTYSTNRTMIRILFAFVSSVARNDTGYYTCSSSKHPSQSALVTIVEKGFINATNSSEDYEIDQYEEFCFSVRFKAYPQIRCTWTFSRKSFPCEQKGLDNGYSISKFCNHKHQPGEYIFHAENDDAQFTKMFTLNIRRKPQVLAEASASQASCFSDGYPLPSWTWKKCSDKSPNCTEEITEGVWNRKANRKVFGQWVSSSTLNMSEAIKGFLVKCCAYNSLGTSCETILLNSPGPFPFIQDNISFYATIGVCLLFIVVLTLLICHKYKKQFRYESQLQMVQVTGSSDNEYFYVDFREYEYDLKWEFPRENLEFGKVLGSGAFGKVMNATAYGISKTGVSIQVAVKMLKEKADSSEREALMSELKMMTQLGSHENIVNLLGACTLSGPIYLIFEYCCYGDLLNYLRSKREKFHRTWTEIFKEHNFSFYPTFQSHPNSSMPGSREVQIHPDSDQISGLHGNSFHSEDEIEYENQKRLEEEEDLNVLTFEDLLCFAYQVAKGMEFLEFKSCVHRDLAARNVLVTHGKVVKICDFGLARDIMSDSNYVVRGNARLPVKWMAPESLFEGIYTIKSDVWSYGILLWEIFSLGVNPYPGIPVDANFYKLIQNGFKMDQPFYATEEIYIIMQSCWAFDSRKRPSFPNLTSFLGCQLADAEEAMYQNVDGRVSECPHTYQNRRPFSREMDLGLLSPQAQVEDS
UniProt Q96QS6, whole entry: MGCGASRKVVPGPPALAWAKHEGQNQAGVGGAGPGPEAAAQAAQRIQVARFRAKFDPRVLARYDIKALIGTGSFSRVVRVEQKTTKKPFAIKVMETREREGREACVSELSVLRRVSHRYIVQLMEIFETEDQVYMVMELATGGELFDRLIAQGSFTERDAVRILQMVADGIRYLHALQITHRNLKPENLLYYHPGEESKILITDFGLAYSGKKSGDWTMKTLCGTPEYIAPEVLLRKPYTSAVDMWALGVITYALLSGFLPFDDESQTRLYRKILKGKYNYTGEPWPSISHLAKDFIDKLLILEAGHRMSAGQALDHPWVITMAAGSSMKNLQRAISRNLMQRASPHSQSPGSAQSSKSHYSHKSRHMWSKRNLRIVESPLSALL

| Molecule | target | assay | system | setting | scale | quantity | value |
| --- | --- | --- | --- | --- | --- | --- | --- |
| CO[C@]12C=C[C@@]3(C[C@@H]1[C@H](O)c1ccccc1)[C@H]1Cc4ccc(O)c5c4[C@@]3(CCN1CC1CC1)[C@H]2O5 | OPRK1 | G-protein activation, agonist | – | – | – | EC50 | 2.1 ± 0.49 nM |
| CO[C@]12CC[C@@]3(C[C@@H]1[C@](C)(O)CC(C)(C)C)[C@H]1Cc4ccc(O)c5c4[C@@]3(CCN1CC1CC1)[C@H]2O5 | OPRK1 | radioligand binding | CHO | with: [3H]U69593 | – | Ki | 1.59 ± 0.25 nM |
| [3H]diprenorphine | OPRK1 (Homo sapiens, UniProt P41145, E297K) | radioligand, saturation binding | N2a cell membranes | 1 h, pH 7.4, room temperature, with: [3H]diprenorphine | – | Kd | 0.13 ± 0.03 nM |
| CN(C(=O)Cc1ccc(Cl)c(Cl)c1)C1CCC2(CCCO2)CC1N1CCCC1 (stereo not drawn) | OPRK1 | receptor internalization, agonist, on-cell western | N2a | 1 h, human receptor | – | EC50 | 68 nM |
| CO[C@]12CC[C@@]3(C[C@@H]1[C@@H](O)c1ccccc1)[C@H]1Cc4ccc(O)c5c4[C@@]3(CCN1CC1CC1)[C@H]2O5 | OPRK1 | G-protein activation, agonist | – | – | – | EC50 | 0.36 ± 0.03 nM |
| CO[C@]12CC[C@@]3(C[C@@H]1[C@@](C)(O)C(C)(C)C)[C@H]1Cc4cc(Br)c(O)c5c4[C@@]3(CCN1CC1CC1)[C@H]2O5 | OPRK1 | radioligand binding | CHO | with: [3H]U69593 | – | Ki | 35.5 ± 3.9 nM |
| CN(C(=O)Cc1cccc2occc12)[C@H]1CC[C@@]2(CCCO2)C[C@@H]1N1CCCC1 | OPRK1 | agonist | – | human receptor | – | EC50 | 7.5 nM |
| CC#C/C(=N\OC[C@H]1COCCN1)c1ccc2ncnc(Nc3ccc(OCc4cccc(F)c4)c(Cl)c3)c2c1 | FLT3 (Homo sapiens, UniProt P36888) | kinase activity | – | 10 µM | – | inhibition | 7.1% |
| CC[C@](O)([C@H]1C[C@@]23C=C[C@]1(OC)[C@@H]1Oc4c(O)ccc5c4[C@@]12CCN(CC1CC1)[C@@H]3C5)C(C)(C)C | OPRK1 | G-protein activation, agonist | – | – | – | EC50 | 122 ± 63 nM |
| methoxymethyl salvinorin B | OPRK1 | receptor internalization, agonist, on-cell western | N2a | 1 h, human receptor | – | EC50 | 3.2 nM |
| CCN1CCN(Cc2ccc(NC(=O)c3ccc(C)c(/C=C/c4cnc5[nH]ccc5c4OC)c3)cc2C(F)(F)F)CC1 | Serine/threonine-protein kinase H2 (PSKH2, Homo sapiens, UniProt Q96QS6) | kinase-CDC37 interaction, inhibitor | human cells | 5 µM | reference: vehicle | log2 fold change | 0.215 |
| COC(=O)[C@@H]1C[C@H](OC(=O)CSC#N)C(=O)[C@H]2[C@@]1(C)CC[C@H]1C(=O)O[C@H](c3ccoc3)C[C@]21C | OPRK1 | agonist | – | – | – | EC50 | 0.077 ± 0.016 nM |

Some of these lines once more:
| Molecule | target | assay | system | setting | scale | quantity | value |
| --- | --- | --- | --- | --- | --- | --- | --- |
| CO[C@]12CC[C@@]3(C[C@@H]1[C@@](C)(O)C(C)(C)C)[C@H]1Cc4cc(Br)c(O)c5c4[C@@]3(CCN1CC1CC1)[C@H]2O5 | OPRK1 | radioligand binding | CHO | with: [3H]U69593 | – | Ki | 35.5 ± 3.9 nM |
